Experimental data pooled from the literature.
Numbered parts are unrelated; each lists some results of a single study. Substitutions count along the parent as printed.

Sample 1 — technique: protein binding microarray; molecule type: double-stranded DNA, one strand shown; medium: in vitro; concentration: not given; baseline: not given; reading: higher = stronger binding; endpoint: E-score
Target: Histone acetyltransferase KAT6A, winged helix 1, GST fusion (KAT6A, Homo sapiens, UniProt Q92794, residues 1-85)
Setting: 8-mer, flanks averaged, mean of 2 arrays, mostly near background
Residues (chain): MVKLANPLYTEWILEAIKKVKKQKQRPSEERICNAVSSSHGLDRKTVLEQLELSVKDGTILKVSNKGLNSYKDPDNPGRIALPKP
Sequence = TATCTAGA; value = -0.177
Sequence = AGAGGGAA; value = -0.245
Sequence = AGTGGTGC; value = -0.19
Sequence = GGGCTAAA; value = -0.0351
Sequence = ACCGAAAG; value = -0.113
Sequence = GGGAGCAA; value = -0.053
Sequence = AAACGTCC; value = -0.106
Sequence = ACAATTCT; value = -0.155
Sequence = AATCATGG; value = -0.232
Sequence = CCTATTTC; value = -0.204
Sequence = CGCCACCA; value = 0.194
Sequence = GCGAAACA; value = 0.0787
Sequence = AGCCAAAC; value = 0.026
Sequence = CTCTTACA; value = -0.197
Sequence = AATTTTAA; value = -0.224
Sequence = GGCAACTA; value = -0.0484
Sequence = TCCGTGAA; value = 0.101
Sequence = GGATTGGA; value = -0.226
Sequence = AAAGTCGC; value = -0.0278
Sequence = ACAAGAGG; value = -0.0247
Sequence = ACACTCTC; value = -0.0869
Sequence = AGTTGGTG; value = -0.117
Sequence = ACCACAGC; value = -0.102
Sequence = CTAATGTA; value = -0.0423
Sequence = AGGACAAC; value = -0.226

Sample 2 — technique: RNA Bind-n-Seq; molecule type: RNA; medium: in vitro; concentration: 1 µM; setting: whole 134-nt RNA, ends assumed; added: 150 mM KCl; baseline: input library; reading: higher = stronger binding; endpoint: log2 enrichment
Target: Ras GTPase-activating protein-binding protein 1, C-terminal RGG region (G3BP1, Homo sapiens, UniProt Q13283)
UniProt Q13283, sequence (whole entry, looked up): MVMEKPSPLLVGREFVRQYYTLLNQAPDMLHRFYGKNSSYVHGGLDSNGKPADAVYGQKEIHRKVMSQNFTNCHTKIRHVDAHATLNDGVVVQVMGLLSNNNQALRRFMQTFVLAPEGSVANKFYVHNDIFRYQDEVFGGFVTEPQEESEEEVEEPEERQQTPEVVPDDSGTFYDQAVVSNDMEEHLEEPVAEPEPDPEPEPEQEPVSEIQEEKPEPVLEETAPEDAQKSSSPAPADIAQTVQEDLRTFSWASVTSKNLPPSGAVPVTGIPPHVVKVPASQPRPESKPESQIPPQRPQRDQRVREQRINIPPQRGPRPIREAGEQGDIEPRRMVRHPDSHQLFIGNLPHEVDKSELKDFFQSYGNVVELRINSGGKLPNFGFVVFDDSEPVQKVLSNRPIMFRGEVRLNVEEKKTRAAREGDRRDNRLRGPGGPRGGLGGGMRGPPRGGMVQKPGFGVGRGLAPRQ
Shared flanks, not repeated: GGGAGUUCUACAGUCCGACGAUC … UGGAAUUCUCGGGUGUCAAGG
Sequence = UCCUGUGCUACACAUCGUAUGUACCGAAUCGGGGAAAAAGGGGAGGGGUUUUUUUGGGGAAAGUAUUAUGUUACGCCGUUCGGAUCUGCA; value = 1.66
Sequence = UCAAGUCCUGUGCUACACAUCGUAUGUACCGAAUCGGGAGGGUGGGAAAAAGGGAAAGUAUUAUGUUACGCCGUUCGGAUCUGCACUUCC; value = 1.46
Sequence = CUCAAGUCCUGUGCUACACAUCGUAUGUACCGAAUCGGCCGGGGCCGGCCGGGGAAAGUAUUAUGUUACGCCGUUCGGAUCUGCACUUCC; value = -1.04
Sequence = AAGUCCUGUGCUACACAUCGUAUGUACCGAAUCGGGAAAGGGUGGGAAAAAAAGGGAAAGUAUUAUGUUACGCCGUUCGGAUCUGCACUU; value = 0.114
Sequence = GUCCUGUGCUACACAUCGUAUGUACCGAAUCGGGUUUUUUGGGUUUUUUGGUUUUUUGGAAAGUAUUAUGUUACGCCGUUCGGAUCUGCA; value = -1.5
Sequence = UCCUGUGCUACACAUCGUAUGUACCGAAUCGGGGAAAAAGGGGAAAAAGGGGUUUGGGGAAAGUAUUAUGUUACGCCGUUCGGAUCUGCA; value = 2.09
Sequence = CCUGUGCUACACAUCGUAUGUACCGAAUCGGGGCCCCCCGGGGCCCCCCGGGCCCCCCGGAAAGUAUUAUGUUACGCCGUUCGGAUCUGC; value = -1.68
Sequence = CUGUGCUACACAUCGUAUGUACCGAAUCGGGGCCCCCCCGGGCCCCCCCGGGGCCCCCCCGGAAAGUAUUAUGUUACGCCGUUCGGAUCU; value = -2.09
Sequence = CCUGUGCUACACAUCGUAUGUACCGAAUCGGGGAAAAAAGGGGAAAAAAGGGAAAAAAGGGAAAGUAUUAUGUUACGCCGUUCGGAUCUG; value = -1.52
Sequence = UAACUUUAGAGGAGGAUCUGAUGGAUAUGGCAGUGGACGUGGAUUUGCGGAUGGCUAUAAUGGGUAUGGAGGAGGACCUGGAGGUGGCAA; value = -0.935

Sample 3 — target: CCNE2, cyclin fold, Cln2 fusion (human); technique: yeast growth competition, sequencing; medium: yeast; setting: weak parent motif; baseline: not given; reading: higher = stronger binding; endpoint: normalised enrichment score
Parent: PKMYT1 docking peptide (human); SFEPRNLLSLFED; partner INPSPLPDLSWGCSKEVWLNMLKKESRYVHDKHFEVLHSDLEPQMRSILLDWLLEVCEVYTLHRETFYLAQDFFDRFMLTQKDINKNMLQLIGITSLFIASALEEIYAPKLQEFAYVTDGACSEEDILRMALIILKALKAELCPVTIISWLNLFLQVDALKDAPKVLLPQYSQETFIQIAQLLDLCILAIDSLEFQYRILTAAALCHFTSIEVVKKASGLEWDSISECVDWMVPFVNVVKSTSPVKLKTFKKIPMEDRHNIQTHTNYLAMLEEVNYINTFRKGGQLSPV
Substitution = SFEKRNLLSLFED [P4K]; value = 0.54
Substitution = SFNPRNLLSLFED [E3N]; value = -0.806
Substitution = SFEPRNLLSHFED [L10H]; value = -0.16
Substitution = SFEPRNLLSLFEE [D13E]; value = -0.171
Substitution = SFEPRNLMSLFED [L8M]; value = 0.44
Substitution = GFEPRNLLSLFED [S1G]; value = 0.14
Substitution = SFEPRDLLSLFED [N6D]; value = -1.05
Substitution = SFEPRNLLALFED [S9A]; value = 0.508
Substitution = SFEPWNLLSLFED [R5W]; value = 0.0208
Substitution = SFEPRNSLSLFED [L7S]; value = -0.338
Substitution = SFEHRNLLSLFED [P4H]; value = -0.152
Substitution = STEPRNLLSLFED [F2T]; value = 0.442
Substitution = SFEPRNLLSDFED [L10D]; value = 0.345
Substitution = SFEPRFLLSLFED [N6F]; value = 0.454
Substitution = SGEPRNLLSLFED [F2G]; value = -0.159
Substitution = SFEPRNLLSLNED [F11N]; value = -0.407
Substitution = SFEDRNLLSLFED [P4D]; value = -1.06
Substitution = SFEPRNLLCLFED [S9C]; value = -0.0456
Substitution = SFEPHNLLSLFED [R5H]; value = -0.993
Substitution = SFEPRNLLSLFEQ [D13Q]; value = 0.76
Substitution = SFEPRNLLTLFED [S9T]; value = 0.117
Substitution = MFEPRNLLSLFED [S1M]; value = 0.806
Substitution = SFEPRVLLSLFED [N6V]; value = 0.146
Substitution = SAEPRNLLSLFED [F2A]; value = -0.137
Substitution = SFEPRNLLSLYED [F11Y]; value = 0.615

Sample 4 — technique: RNA Bind-n-Seq; molecule type: RNA; medium: in vitro; concentration: 365 nM; baseline: no-protein control; reading: higher = stronger binding; endpoint: RBNS enrichment (R)
Target: RNA binding protein fox-1 homolog 2, RRM domain, GST-SBP tag (RBFOX2, Homo sapiens, UniProt O43251-10, residues 100-194)
Setting: natural RNA segment, single round, ends assumed
Shared flanks, not repeated: GGGAGUUCUACAGUCCGACGAUC … UGGAAUUCUCGGGUGCCAA
Construct (chain): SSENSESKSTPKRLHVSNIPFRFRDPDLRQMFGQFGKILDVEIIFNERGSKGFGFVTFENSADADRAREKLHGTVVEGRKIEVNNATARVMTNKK
Sequence = UGUGUGUAUGUGCGUGUGCGUGCACAUGUGUGCCUGCGUGUUGGUAUAGGACUUUAAAGCUCCUUUUGGCAUAGGGAAGUCACGAAGGAUUGCUUGACAUCAGGAGACUU; value = 0.861
Sequence = GGAAAGCAGGCCAAGAACUUGUCAUGUGCCCCAUCCACUUCGAGGCUGGAUGGGAUGGGGCUCCAAGUCUGAGAUUUCAUUGAUACUAGGCAAUAUGGUUUGUAAAAUAC; value = 0.387
Sequence = CCUUCCCUCCAGGACCUGCCCGUGUGAAGACCCCCCGGAGUGCUGAGCUUCAGGGCUGCGUGGAAAGAGUUUUUACUCUCUUUUUCUAGCCUGUAUACCAGGCUUUUCCC; value = 0.383
Sequence = CUUUUUUGGAUCACUAAGGACUAUGACCUCUGAGUAACCUGAUGACCUGAGAAAGAGUAAGGAGGCCAGGCAGGGCCUUGGGCCCAGGAACAGGUACCUUGAGAGUGAGA; value = 0.675
Sequence = GAUUCAGCACUUUGCUCUUUUAAUAACAAAUCGUCCAAAGAUCUCAAAGUAAGGGUUUUUUUUUUUAGCUUCCACUCUUCCGCAGACUUGGUCAUCGACCUAUUUUUGUU; value = 0.618
Sequence = CCUCUUUCUCUCUCUAUUUAUAAAUGAGAACUGUUGGACGACACCUUUGACAUAUCAGCCAAUACCAAUCAAGCUGACGACUCCAGACACUCCGUGUGACUGUAACAUUU; value = 0.438
Sequence = UUAUUUUGAAAUCAUGUAAAAUAAGAUAUUAGACUGUUUUUUGAAUAAAAUAUUUUUAUUGAUUGAACCUUUGACCCUCUAUCUUAUUACAUUUAGAGGCCUGGCAUCUU; value = 1.2
Sequence = AGAUUUGCUGUGUGAUGAAGUGACAGGGAGGGCCGGAGUCAGCAGGUGCCAGACUUUCUGUUCUGUCUGCCAUGGGUUUGUCCAGCUCAGGUAGCUCUAGGAGCACCAUC; value = 0.403
Sequence = AUUCCUUGGGAUUCUGGUUUGGGGUGGUCAGUGCCCUCUGUGCUUUAUGGACACAAAACCAGAGCACUUGAUGAACUCGGGGUACUAGGGUCAGGGCUUAUAGCAGGAUG; value = 0.407
Sequence = UAAUGUUAAGUGGGGUACAGAUCAGCUGCCCCCCCACGUAGCCUGGACAUCGUCUUAUCCCCAUAAUCCUUGCCAUCCCUACAAGGCCCAUCGCCACCACCUUUUCCCAG; value = 0.314
Sequence = GUAGGUGUGCAAGAAGCCAUUUCCCCAUAAGCACUGGCCUUUGAUGGCCCCCUCAGCCUACCUGGUGUGGCCACCCAGCUGUGGCUCAGCCAUCCCCGCCCUCCCUCCGC; value = 0.325
Sequence = GCAAUAACAAGGUUUUAAAAGAUAAUAAUAAAGAGGAAACACGACUAUUGGACAAAGUAUUUAUGUAAUUAUUUGAUAUCUCUUGUAAAUAGGUGGAAUAUGACUGCUCA; value = 0.457

Further values, each from its own experiment
Substance = PhoQ, residues 284 288 289 292 302 303 WVSSAF; target = PhoP, residues 12 14 15 18 19 AQALL (Escherichia coli, UniProt P23836); test = Sort-seq, item: YFP reporter; system = E. coli; setting = PhoQ-PhoP variant library, added: 10 µM Mg2+; how to read = baseline: high Mg2+ state, higher = stronger signaling; endpoint = fold induction; value = 14

Some of these lines once more (sample 4):
Sequence = UGUGUGUAUGUGCGUGUGCGUGCACAUGUGUGCCUGCGUGUUGGUAUAGGACUUUAAAGCUCCUUUUGGCAUAGGGAAGUCACGAAGGAUUGCUUGACAUCAGGAGACUU; value = 0.861
Sequence = GGAAAGCAGGCCAAGAACUUGUCAUGUGCCCCAUCCACUUCGAGGCUGGAUGGGAUGGGGCUCCAAGUCUGAGAUUUCAUUGAUACUAGGCAAUAUGGUUUGUAAAAUAC; value = 0.387
Sequence = CCUUCCCUCCAGGACCUGCCCGUGUGAAGACCCCCCGGAGUGCUGAGCUUCAGGGCUGCGUGGAAAGAGUUUUUACUCUCUUUUUCUAGCCUGUAUACCAGGCUUUUCCC; value = 0.383
Sequence = CUUUUUUGGAUCACUAAGGACUAUGACCUCUGAGUAACCUGAUGACCUGAGAAAGAGUAAGGAGGCCAGGCAGGGCCUUGGGCCCAGGAACAGGUACCUUGAGAGUGAGA; value = 0.675
Sequence = GAUUCAGCACUUUGCUCUUUUAAUAACAAAUCGUCCAAAGAUCUCAAAGUAAGGGUUUUUUUUUUUAGCUUCCACUCUUCCGCAGACUUGGUCAUCGACCUAUUUUUGUU; value = 0.618
Sequence = CCUCUUUCUCUCUCUAUUUAUAAAUGAGAACUGUUGGACGACACCUUUGACAUAUCAGCCAAUACCAAUCAAGCUGACGACUCCAGACACUCCGUGUGACUGUAACAUUU; value = 0.438
Sequence = UUAUUUUGAAAUCAUGUAAAAUAAGAUAUUAGACUGUUUUUUGAAUAAAAUAUUUUUAUUGAUUGAACCUUUGACCCUCUAUCUUAUUACAUUUAGAGGCCUGGCAUCUU; value = 1.2
Sequence = AGAUUUGCUGUGUGAUGAAGUGACAGGGAGGGCCGGAGUCAGCAGGUGCCAGACUUUCUGUUCUGUCUGCCAUGGGUUUGUCCAGCUCAGGUAGCUCUAGGAGCACCAUC; value = 0.403
Sequence = AUUCCUUGGGAUUCUGGUUUGGGGUGGUCAGUGCCCUCUGUGCUUUAUGGACACAAAACCAGAGCACUUGAUGAACUCGGGGUACUAGGGUCAGGGCUUAUAGCAGGAUG; value = 0.407
